Assay results collected from several papers.
Numbers after ± are the reported error.
Botulinum neurotoxin type A light chain: Botulinum neurotoxin type A, light chain (Clostridium botulinum, UniProt P0DPI0)
Neuronal acetylcholine receptor; alpha3/beta2: Neuronal acetylcholine receptor; alpha3/beta2 (Rattus norvegicus, UniProt P04757+P12390)
Ricin A chain: Ricin, A chain (Ricinus communis, UniProt P02879)
OPRM1: Mu-type opioid receptor (OPRM1, Homo sapiens, UniProt P35372)
rep R3428I 3C-like proteinase: Replicase polyprotein 1ab, 3C-like proteinase (rep, Severe acute respiratory syndrome-related coronavirus, UniProt P0C6X7, R3428I)
Replicase polyprotein 1a R3428I 3C-like proteinase: Replicase polyprotein 1a, 3C-like proteinase (Severe acute respiratory syndrome-related coronavirus, UniProt P0C6U8, R3428I)

Chains of the proteins cited; added tags and fusions are not shown. Residues count along the entry.
UniProt P04757, 26-499 limits assumed: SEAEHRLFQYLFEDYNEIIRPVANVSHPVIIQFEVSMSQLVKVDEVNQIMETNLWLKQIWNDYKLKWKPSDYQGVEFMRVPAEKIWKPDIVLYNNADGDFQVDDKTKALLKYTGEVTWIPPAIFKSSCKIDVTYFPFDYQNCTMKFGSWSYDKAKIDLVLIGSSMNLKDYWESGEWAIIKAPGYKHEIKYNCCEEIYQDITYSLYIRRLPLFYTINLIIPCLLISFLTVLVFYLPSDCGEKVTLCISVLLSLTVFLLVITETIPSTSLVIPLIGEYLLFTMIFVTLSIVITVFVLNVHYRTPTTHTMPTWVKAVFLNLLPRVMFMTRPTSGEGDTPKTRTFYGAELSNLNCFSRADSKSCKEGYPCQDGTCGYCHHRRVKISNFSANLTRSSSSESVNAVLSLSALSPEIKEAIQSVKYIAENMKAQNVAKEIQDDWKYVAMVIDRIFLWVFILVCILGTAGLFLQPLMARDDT
UniProt P12390, 25-500 limits assumed: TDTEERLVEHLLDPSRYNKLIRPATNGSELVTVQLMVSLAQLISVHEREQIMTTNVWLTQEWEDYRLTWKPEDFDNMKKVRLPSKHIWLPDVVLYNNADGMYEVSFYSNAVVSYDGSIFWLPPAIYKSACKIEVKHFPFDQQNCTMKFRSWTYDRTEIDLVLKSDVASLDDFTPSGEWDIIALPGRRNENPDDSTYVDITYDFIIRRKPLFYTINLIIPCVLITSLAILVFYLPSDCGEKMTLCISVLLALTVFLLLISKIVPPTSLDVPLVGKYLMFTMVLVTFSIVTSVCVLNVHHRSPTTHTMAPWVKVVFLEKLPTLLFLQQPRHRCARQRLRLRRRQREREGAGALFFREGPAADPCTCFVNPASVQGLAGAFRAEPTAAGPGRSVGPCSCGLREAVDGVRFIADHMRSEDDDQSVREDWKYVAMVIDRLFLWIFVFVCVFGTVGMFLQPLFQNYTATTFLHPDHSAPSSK
UniProt P35372, whole entry: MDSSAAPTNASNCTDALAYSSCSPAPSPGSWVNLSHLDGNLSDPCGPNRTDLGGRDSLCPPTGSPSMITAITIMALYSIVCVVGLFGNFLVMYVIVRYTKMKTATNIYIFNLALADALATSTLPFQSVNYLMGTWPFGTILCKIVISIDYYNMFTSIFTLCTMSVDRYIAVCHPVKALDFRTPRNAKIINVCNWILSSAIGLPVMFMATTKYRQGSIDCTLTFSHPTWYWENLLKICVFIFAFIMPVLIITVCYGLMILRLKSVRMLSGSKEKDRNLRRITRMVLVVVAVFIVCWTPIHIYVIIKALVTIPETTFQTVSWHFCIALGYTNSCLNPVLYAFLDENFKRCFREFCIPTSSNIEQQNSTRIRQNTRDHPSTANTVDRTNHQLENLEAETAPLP
UniProt Q9GZZ6, 25-450 limits assumed: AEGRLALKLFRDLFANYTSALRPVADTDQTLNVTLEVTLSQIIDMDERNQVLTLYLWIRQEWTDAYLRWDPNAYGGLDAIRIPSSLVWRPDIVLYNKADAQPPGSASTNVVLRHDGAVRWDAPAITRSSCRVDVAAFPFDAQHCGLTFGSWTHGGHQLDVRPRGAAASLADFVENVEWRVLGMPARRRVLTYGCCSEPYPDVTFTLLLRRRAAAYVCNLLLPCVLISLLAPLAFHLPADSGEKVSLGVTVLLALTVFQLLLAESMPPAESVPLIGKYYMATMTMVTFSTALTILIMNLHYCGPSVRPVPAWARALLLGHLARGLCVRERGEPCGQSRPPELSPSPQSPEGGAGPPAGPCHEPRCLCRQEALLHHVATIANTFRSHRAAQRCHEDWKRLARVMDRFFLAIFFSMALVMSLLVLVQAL
UniProt Q9UGM1, 26-479 limits assumed: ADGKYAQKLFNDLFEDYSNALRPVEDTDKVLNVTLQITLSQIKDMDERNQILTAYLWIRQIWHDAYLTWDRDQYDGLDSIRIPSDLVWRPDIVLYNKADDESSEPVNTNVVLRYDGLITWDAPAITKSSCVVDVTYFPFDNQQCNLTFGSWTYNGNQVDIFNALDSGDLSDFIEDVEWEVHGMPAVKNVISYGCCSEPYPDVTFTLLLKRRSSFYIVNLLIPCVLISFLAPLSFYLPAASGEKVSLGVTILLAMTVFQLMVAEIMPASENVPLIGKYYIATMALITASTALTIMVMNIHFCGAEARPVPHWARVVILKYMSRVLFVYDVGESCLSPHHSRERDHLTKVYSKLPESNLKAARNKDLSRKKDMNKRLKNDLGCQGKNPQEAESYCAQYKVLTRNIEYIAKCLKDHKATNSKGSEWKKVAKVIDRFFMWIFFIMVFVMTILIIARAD
UniProt P15390, whole entry: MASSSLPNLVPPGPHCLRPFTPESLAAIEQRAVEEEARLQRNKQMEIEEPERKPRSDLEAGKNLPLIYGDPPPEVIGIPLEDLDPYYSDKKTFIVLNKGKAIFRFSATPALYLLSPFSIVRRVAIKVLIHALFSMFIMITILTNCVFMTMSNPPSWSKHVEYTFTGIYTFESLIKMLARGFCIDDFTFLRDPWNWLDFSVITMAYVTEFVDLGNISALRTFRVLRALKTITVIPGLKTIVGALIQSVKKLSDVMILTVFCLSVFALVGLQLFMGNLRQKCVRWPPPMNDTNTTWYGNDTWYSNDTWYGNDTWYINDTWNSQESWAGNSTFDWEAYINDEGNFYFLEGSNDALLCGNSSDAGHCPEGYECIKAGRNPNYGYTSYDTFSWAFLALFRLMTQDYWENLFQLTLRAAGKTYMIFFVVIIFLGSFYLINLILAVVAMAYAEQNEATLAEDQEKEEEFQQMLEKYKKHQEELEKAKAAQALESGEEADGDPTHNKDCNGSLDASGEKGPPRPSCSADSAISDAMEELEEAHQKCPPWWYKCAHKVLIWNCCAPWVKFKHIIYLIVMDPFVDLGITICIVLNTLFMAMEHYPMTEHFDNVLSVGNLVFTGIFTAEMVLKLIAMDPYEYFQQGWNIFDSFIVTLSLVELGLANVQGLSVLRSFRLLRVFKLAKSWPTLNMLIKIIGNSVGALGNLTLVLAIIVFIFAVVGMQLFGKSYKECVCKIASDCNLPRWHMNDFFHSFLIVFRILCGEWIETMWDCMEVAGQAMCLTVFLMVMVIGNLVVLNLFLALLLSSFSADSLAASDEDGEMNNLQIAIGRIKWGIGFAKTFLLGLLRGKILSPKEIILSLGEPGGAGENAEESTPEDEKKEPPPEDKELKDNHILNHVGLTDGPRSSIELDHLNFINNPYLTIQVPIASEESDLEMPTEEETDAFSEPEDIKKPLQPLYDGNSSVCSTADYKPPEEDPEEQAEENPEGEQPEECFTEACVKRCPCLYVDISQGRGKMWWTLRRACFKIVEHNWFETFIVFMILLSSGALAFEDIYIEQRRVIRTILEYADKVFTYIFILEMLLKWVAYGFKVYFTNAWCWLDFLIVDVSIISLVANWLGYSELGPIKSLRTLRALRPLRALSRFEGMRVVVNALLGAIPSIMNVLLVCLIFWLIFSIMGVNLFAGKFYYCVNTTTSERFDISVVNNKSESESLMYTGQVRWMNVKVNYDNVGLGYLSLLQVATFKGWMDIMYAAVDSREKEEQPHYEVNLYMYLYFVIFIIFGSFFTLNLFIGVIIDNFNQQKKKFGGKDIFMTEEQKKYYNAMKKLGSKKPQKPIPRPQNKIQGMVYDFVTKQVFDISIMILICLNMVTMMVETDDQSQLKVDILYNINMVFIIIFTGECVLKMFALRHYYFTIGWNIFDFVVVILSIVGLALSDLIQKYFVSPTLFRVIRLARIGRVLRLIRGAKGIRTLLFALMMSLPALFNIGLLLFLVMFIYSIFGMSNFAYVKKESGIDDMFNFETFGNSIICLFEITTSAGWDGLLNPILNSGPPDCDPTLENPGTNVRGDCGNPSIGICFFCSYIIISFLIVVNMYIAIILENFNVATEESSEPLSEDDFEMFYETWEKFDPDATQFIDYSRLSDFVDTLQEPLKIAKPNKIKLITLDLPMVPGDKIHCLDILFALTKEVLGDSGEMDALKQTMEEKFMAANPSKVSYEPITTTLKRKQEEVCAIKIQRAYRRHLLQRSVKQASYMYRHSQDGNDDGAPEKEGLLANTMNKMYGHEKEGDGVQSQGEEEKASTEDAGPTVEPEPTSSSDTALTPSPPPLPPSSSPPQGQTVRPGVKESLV
UniProt P32300, whole entry: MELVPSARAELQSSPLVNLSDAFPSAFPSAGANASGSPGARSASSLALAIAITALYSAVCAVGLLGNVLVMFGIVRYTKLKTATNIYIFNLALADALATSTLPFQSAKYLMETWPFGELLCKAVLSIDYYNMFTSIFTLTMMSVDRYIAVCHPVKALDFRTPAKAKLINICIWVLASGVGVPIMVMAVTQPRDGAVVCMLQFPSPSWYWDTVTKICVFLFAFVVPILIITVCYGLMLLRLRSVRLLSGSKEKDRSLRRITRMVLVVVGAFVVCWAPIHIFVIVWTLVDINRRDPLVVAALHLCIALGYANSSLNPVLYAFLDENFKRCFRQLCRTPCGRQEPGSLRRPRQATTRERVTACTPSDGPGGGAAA
UniProt P41145, whole entry: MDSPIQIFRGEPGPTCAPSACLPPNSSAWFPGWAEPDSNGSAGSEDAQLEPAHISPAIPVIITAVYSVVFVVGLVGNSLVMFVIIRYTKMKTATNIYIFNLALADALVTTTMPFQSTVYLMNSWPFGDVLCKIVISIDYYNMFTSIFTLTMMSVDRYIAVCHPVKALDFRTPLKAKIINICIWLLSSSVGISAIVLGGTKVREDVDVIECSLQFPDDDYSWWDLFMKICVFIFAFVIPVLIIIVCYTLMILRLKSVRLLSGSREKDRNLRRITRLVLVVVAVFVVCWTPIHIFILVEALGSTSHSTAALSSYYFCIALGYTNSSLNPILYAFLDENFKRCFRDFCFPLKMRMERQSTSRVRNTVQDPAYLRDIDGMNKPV
UniProt P09483, 31-630 limits assumed: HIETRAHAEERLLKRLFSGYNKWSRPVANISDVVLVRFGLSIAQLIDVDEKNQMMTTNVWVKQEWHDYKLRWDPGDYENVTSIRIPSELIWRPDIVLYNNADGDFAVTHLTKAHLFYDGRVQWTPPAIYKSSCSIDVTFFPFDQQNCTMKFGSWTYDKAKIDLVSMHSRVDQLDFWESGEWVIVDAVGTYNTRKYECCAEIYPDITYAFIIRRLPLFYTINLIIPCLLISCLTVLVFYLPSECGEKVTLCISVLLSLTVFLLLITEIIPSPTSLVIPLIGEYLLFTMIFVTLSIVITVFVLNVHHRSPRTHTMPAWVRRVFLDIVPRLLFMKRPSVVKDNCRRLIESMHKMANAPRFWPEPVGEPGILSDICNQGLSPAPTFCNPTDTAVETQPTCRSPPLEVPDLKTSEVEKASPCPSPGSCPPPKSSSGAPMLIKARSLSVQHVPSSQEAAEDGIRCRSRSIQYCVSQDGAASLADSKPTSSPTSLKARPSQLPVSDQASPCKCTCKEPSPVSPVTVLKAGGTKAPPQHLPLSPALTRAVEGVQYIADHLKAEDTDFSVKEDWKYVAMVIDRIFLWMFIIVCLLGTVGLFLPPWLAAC
UniProt P22303, 32-614 limits assumed: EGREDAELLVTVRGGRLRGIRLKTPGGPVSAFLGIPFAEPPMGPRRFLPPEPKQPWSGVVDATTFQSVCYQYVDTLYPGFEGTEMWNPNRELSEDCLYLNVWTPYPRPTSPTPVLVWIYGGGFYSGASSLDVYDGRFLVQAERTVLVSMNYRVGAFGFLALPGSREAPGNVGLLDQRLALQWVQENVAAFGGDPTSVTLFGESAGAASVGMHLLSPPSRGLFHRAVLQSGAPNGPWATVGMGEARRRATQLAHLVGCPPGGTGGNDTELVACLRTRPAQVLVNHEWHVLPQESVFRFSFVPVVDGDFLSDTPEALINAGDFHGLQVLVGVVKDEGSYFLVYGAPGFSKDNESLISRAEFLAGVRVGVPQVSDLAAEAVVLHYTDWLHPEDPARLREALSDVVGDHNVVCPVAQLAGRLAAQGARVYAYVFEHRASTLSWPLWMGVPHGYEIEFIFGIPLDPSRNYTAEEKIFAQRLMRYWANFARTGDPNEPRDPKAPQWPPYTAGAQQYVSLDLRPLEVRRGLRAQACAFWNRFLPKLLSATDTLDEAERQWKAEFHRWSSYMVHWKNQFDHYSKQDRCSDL

CC1=Nc2ccccc2/C1=C/c1sc(=S)n(-c2cccc(C(=O)O)c2)c1O
IC50 (Botulinum neurotoxin type A light chain; inhibitor, FRET, SNAPtide substrate; no reducing agent): 50 ± 20 µM

CC[C@H](C)[C@@H]1NC(=O)[C@H](CO)NC(=O)[C@@H]2CSSC[C@H](NC(=O)CN)C(=O)N[C@@H](CSSC[C@@H](C(N)=O)NC(=O)[C@H](CC(C)C)NC(=O)[C@H](CCC(=O)O)NC(=O)[C@@H]3CCCN3C(=O)[C@H](Cc3c[nH]cn3)NC(=O)[C@H](CC(N)=O)NC1=O)C(=O)N[C@@H](CO)C(=O)N[C@@H](Cc1c[nH]cn1)C(=O)N1CCC[C@H]1C(=O)N[C@@H](C)C(=O)N2
IC50 (Neuronal acetylcholine receptor; alpha3/beta2; ion current, antagonist, two-electrode voltage clamp; Xenopus laevis oocytes; added: 100 µM acetylcholine): 0.0118 µM

Nc1nc2nc(C(=O)NCc3ccc(F)cc3)cnc2c(=O)[nH]1
IC50 (Ricin A chain; recovery of translation, inhibitor, in vitro luciferase translation; rabbit reticulocyte lysate): 570 µM

CCC1C(=O)N(C2CCN(C3CCCc4ccccc43)CC2)c2ccccc21 (stereo not drawn)
Ki (OPRM1; radioligand displacement; added: [3H]DAMGO): 1.05 ± 0.14 nM

COc1ccccc1OCC(=O)N[C@H](C(=O)N[C@@H](CC(C)C)C(=O)N[C@@H](C[C@@H]1CCNC1=O)C(=O)c1nc2ccccc2s1)C(C)C
IC50 (rep R3428I 3C-like proteinase; enzyme activity, inhibitor, HPLC; 60 min, 37 °C, added: substrate 111 µM): 1.9 µM

NC(=O)c1cccc2c1-c1ccccc1C2=O
IC50 (Ricin A chain; ribosome depurination, inhibitor; yeast ribosomes; pH 7.4): > 400 µM

CCCC(=O)OC[C@H](NC(=O)/C=C/c1ccccc1)C(=O)NC1CCCCC1
IC50 (rep R3428I 3C-like proteinase; enzyme activity, inhibitor, HPLC substrate depletion; pH 4.0): 650 µM

C[C@@H]1NC(=O)[C@H](CCCNC(=N)N)NC(=O)[C@H](CCCNC(=N)N)NC(=O)[C@H](Cc2c[nH]cn2)NC(=O)[C@H](CO)NC(=O)[C@H](CCCCN)NC(=O)[C@@H]2CSSC[C@H](NC(=O)CN)C(=O)N[C@@H](CSSC[C@@H](C(N)=O)NC(=O)[C@H](CCCNC(=N)N)NC1=O)C(=O)N[C@@H](CO)C(=O)N[C@@H](Cc1c[nH]cn1)C(=O)N1CCC[C@H]1C(=O)N[C@@H](C)C(=O)N2
IC50 (Neuronal acetylcholine receptor; alpha9/alpha10 (Homo sapiens, UniProt Q9GZZ6+Q9UGM1); ion current, antagonist, two-electrode voltage clamp; Xenopus oocytes; holding -70 mV, added: 100 µM acetylcholine): 0.133 µM

O=C1NN(c2ccccc2)C(=O)/C1=C\c1ccc(-c2cc([N+](=O)[O-])ccc2O)o1
IC50 (Botulinum neurotoxin type A light chain; inhibitor, FRET, YFP-SNAP25-CFP substrate; no reducing agent): 43 ± 7 µM

CC(C)C[C@@H]1NC(=O)[C@H](CC(N)=O)NC(=O)[C@H](CCCCN)NC(=O)[C@@H]2CSSC[C@H](NC(=O)[C@@H](N)CCCNC(=N)N)C(=O)N[C@H]3CSSC[C@H](NC(=O)[C@H](CCCCN)NC1=O)C(=O)N[C@H](C(=O)N[C@@H](C)C(N)=O)CSSC[C@H](NC(=O)[C@H](CO)NC(=O)CNC(=O)[C@H](CCCCN)NC(=O)[C@H](CCCCN)NC(=O)CNC(=O)[C@H]([C@@H](C)O)NC3=O)C(=O)N[C@@H](CO)C(=O)NCC(=O)N[C@@H](CCCNC(=N)N)C(=O)N[C@@H](C)C(=O)N2
IC50 (Sodium channel protein type 4 subunit alpha (Scn4a, Rattus norvegicus, UniProt P15390); sodium current, blocker, two-electrode voltage clamp; Xenopus oocytes expressing Scn4a; room temperature, holding -80 mV, steps to 0 mV): 0.007 µM

CC(C)C[C@@H](NC(=O)[C@@H](NC(=O)OCc1ccccc1)C(C)C)C(=O)N[C@@H](C[C@@H]1CCNC1=O)C(=O)c1nc2ccccc2s1
IC50 (rep R3428I 3C-like proteinase; enzyme activity, inhibitor, HPLC; 60 min, 37 °C, added: substrate 111 µM): > 1600 µM

O=CN1CC[C@]23c4c5ccc(O)c4O[C@H]2[C@@H](O)C=C[C@H]3[C@H]1C5
IC50 (Delta-type opioid receptor (Oprd1, Mus musculus, UniProt P32300); mouse vas deferens): > 10 µM

CCC1C(=O)N(C2CCN(CCCc3ccccc3)CC2)c2ccccc21 (stereo not drawn)
Ki (Kappa-type opioid receptor (OPRK1, Homo sapiens, UniProt P41145); radioligand displacement; added: tritiated U-69593): 468 ± 14.7 nM

O=C(O)c1cc(-c2ccc(-c3c(-c4ccc5c(c4)OCO5)noc3-c3ccsc3)cc2)nc2ccccc12
IC50 (Botulinum neurotoxin type A light chain; inhibitor, FRET, SNAPtide substrate; no reducing agent): > 200 µM

NNC(=O)c1cnc2c(=O)[nH]c(N)nc2n1
IC50 (Ricin A chain; recovery of translation, inhibitor, in vitro luciferase translation; rabbit reticulocyte lysate): < 1000 µM

CC[C@H](CC[C@@H](C)[C@H]1CC[C@H]2[C@@H]3CC=C4C[C@@H](O)CC[C@]4(C)[C@H]3CC[C@]12C)C(C)C
IC50 (Replicase polyprotein 1ab, 3C-like proteinase (rep, Severe acute respiratory syndrome-related coronavirus, UniProt P0C6X7); 3CLpro cleavage, inhibitor, ELISA; 3 h): 115 µM

CC(=O)OC[C@H](NC(=O)/C=C/c1ccccc1)C(=O)NC1CCCCC1
IC50 (rep R3428I 3C-like proteinase; enzyme activity, inhibitor, HPLC substrate depletion; pH 4.0): 400 µM

CCCCCCCCCCCCCCCC[N+](C)(C)CCN(Cc1ccc(OC)cc1)c1ncccn1
IC50 (Replicase polyprotein 1ab, main protease (rep, Middle East respiratory syndrome-related coronavirus, UniProt K9N7C7); enzyme activity, inhibitor, FRET; MERS-CoV; added: 40 µM substrate): 9.6 µM

CC[C@H](C)[C@@H]1NC(=O)[C@H](CCC(=O)O)NC(=O)[C@@H]2CCCN2C(=O)[C@H](Cc2c[nH]cn2)NC(=O)[C@H](CCCCC(=O)O)NC(=O)[C@H](CC(C)C)NC(=O)[C@H](Cc2c[nH]cn2)NC(=O)[C@@H]2CSSC[C@H](NC(=O)CN)C(=O)N[C@@H](CSSC[C@@H](C(N)=O)NC1=O)C(=O)N[C@@H](CO)C(=O)N[C@@H](Cc1c[nH]cn1)C(=O)N1CCC[C@H]1C(=O)N[C@@H](C)C(=O)N2
IC50 (Neuronal acetylcholine receptor; alpha4/beta2 (Rattus norvegicus, UniProt P09483+P12390); ACh-evoked current, antagonist, two-electrode voltage clamp; Xenopus laevis oocytes; added: ACh 100 µM): 0.572 µM

COc1cc(/C=C/C(=O)N[C@H](COC(=O)c2ccccc2)C(=O)NC2CCCCC2)cc(OC)c1OC
IC50 (rep R3428I 3C-like proteinase; enzyme activity, inhibitor, HPLC substrate depletion; pH 4.0): 65 µM

CC(C)C[C@H](NC(=O)[C@@H](NC(=O)OCC(C)(C)C)C(C)C)C(=O)N[C@@H](C[C@@H]1CCNC1=O)C(=O)c1nccs1
IC50 (rep R3428I 3C-like proteinase; enzyme activity, inhibitor, HPLC; 60 min, 37 °C, added: substrate 111 µM): 280 µM

COc1ccc(/C=C/C(=O)N[C@@H](COC(=O)c2ccccc2)C(=O)NC2CCCCC2)cc1OC
IC50 (rep R3428I 3C-like proteinase; enzyme activity, inhibitor, HPLC substrate depletion; pH 4.0): 154 µM

CC(C)OP(=S)(OC(C)C)SCCNS(=O)(=O)c1ccccc1
IC50 (Acetylcholinesterase (ACHE, Homo sapiens, UniProt P22303); enzyme activity, inhibitor, fluorescence; no microsomes): 52.6 ± 3.42 µM

O=C(/C=C/c1ccc(OC(=O)c2ccccc2)cc1)N[C@@H](COC(=O)c1ccccc1)C(=O)NC1CCCCC1
IC50 (rep R3428I 3C-like proteinase; enzyme activity, inhibitor, HPLC substrate depletion; pH 4.0): 95 µM

C=C(CO)[C@@H]1CCC(C)=C[C@H]1c1c(OC(C)=O)cc(CCCCC)cc1OC(C)=O
IC50 (OPRM1; cAMP level, antagonist; HEK293 expressing human µ-opioid receptor; added: fentanyl 500 pM (EC95)): 1.17 µM

Cc1cccc([N+](=O)[O-])c1C(=O)OC[C@H](NC(=O)/C=C/c1ccccc1)C(=O)NC1CCCCC1
IC50 (rep R3428I 3C-like proteinase; enzyme activity, inhibitor, HPLC substrate depletion; pH 4.0): 65 µM

CC(C)C[C@H](NC(=O)[C@@H](NC(=O)CNc1ccccc1)C(C)C)C(=O)N[C@@H](C[C@@H]1CCNC1=O)C(=O)c1nc2ccccc2s1
IC50 (rep R3428I 3C-like proteinase; enzyme activity, inhibitor, HPLC; 60 min, 37 °C, added: substrate 111 µM): 1.5 µM

CSCC[C@H](NC(=O)[C@H](CC(=O)O)NC(=O)[C@H](CC(=O)O)NC(=O)[C@@H](N)CC(=O)O)C(=O)NCC(=O)N[C@@H](Cc1ccccc1)C(=O)NCC(=O)N[C@@H](CC(C)C)C(=O)N[C@@H](Cc1ccccc1)C(=O)N[C@@H](CC(=O)O)C(=O)O
IC50 (Shiga-like toxin 2 subunit A, A1 fragment (UniProt P09385); ribosome depurination; yeast ribosomes; pH 7.4): 28 ± 4 µM

COc1cccc(/C=C/C(=O)O[C@@H](C(=O)NC2CCCCC2)[C@@H](NC(=O)/C=C/c2ccccc2)c2ccccc2)c1
IC50 (Replicase polyprotein 1a R3428I 3C-like proteinase; enzyme activity, inhibitor; pH 4.0): 65 µM

NC12CC3CC(CC(C3)C1)C2
EC50 (Influenza A virus; viral replication; MDCK, A/Swine/Iowa/13-0515/2010 (H3N2)): < 1000 nM

CC(C)C[C@H](NC(=O)[C@@H](NC(=O)Oc1ccccc1)C(C)C)C(=O)N[C@@H](C[C@@H]1CCNC1=O)C(=O)c1nccs1
IC50 (rep R3428I 3C-like proteinase; enzyme activity, inhibitor, HPLC; 60 min, 37 °C, added: substrate 111 µM): 85 µM

C=C(C)C(=O)Nc1cccc(C2=NOC3(C2)C[C@@H](C(N)=O)N(C(=O)C2(C)CC2)C3)c1 (stereo partly drawn)
IC50 (Botulinum neurotoxin type A light chain; inhibitor, FRET, YFP-SNAP25-CFP substrate; no reducing agent): 0.4 ± 0.2 µM

COc1ccc(/C=C/C(=O)N[C@@H](COC(=O)c2ccccc2)C(=O)NC2CCCCC2)cc1
IC50 (rep R3428I 3C-like proteinase; enzyme activity, inhibitor, HPLC substrate depletion; pH 4.0): 240 µM

COc1cc(/C=C/C(=O)O[C@@H](C(=O)NC2CCCCC2)[C@@H](NC(=O)/C=C/c2ccccc2)c2ccccc2)cc(OC)c1
IC50 (Replicase polyprotein 1a R3428I 3C-like proteinase; enzyme activity, inhibitor; pH 4.0): 125 µM

O=C(/C=C/c1ccccc1)N[C@H](COC(=O)c1ccccc1)C(=O)N1CCCCC1
IC50 (rep R3428I 3C-like proteinase; enzyme activity, inhibitor, HPLC substrate depletion; pH 4.0): > 1600 µM

CC(C)C[C@@H]1NC(=O)[C@H](CCC(=O)O)NC(=O)[C@@H]2CCCN2C(=O)[C@H](Cc2c[nH]cn2)NC(=O)[C@H](CCC(=O)O)NC(=O)[C@H](C(C)C)NC(=O)[C@H](CO)NC(=O)[C@@H]2CSSC[C@H](NC(=O)CN)C(=O)N[C@@H](CSSC[C@@H](C(N)=O)NC1=O)C(=O)N[C@@H](CO)C(=O)N[C@@H](Cc1c[nH]cn1)C(=O)N1CCC[C@H]1C(=O)N[C@@H](C)C(=O)N2
IC50 (Neuronal acetylcholine receptor; alpha3/beta2; ion current, antagonist, two-electrode voltage clamp; Xenopus laevis oocytes; added: 100 µM acetylcholine): 0.0311 µM

Some of these lines once more:
CC(=O)OC[C@H](NC(=O)/C=C/c1ccccc1)C(=O)NC1CCCCC1
IC50 (rep R3428I 3C-like proteinase; enzyme activity, inhibitor, HPLC substrate depletion; pH 4.0): 400 µM

CCCCCCCCCCCCCCCC[N+](C)(C)CCN(Cc1ccc(OC)cc1)c1ncccn1
IC50 (Replicase polyprotein 1ab, main protease (rep, Middle East respiratory syndrome-related coronavirus, UniProt K9N7C7); enzyme activity, inhibitor, FRET; MERS-CoV; added: 40 µM substrate): 9.6 µM
